# Published values collected from several papers.
# Protocols differ between the studies behind these lines.
SMILES,assay,test system,conditions,measurement,result
Cc1cc(-c2nnc(N)nc2-c2ccc(F)cc2)cc(Cl)n1,measured: Rash,IO-naive colorectal cancer patients,"oral, dose not given, treatment-related, all grades",patients with immune-mediated AE,4%
CNC(=O)c1ccc(-c2cnc3ncc(Cc4ccc5ncccc5c4)n3n2)cc1F,measured: Fatigue,cancer patients,"oral, 600 mg twice daily, all expansion cohorts, grade 3-4",patients with adverse event,8%
C=CC[C@@H]1/C=C(\C)C[C@H](C)C[C@H](OC)[C@H]2O[C@@](O)(C(=O)C(=O)N3CCCC[C@H]3C(=O)O[C@H](/C(C)=C/[C@@H]3CC[C@@H](O)[C@H](OC)C3)[C@H](C)[C@@H](O)CC1=O)[C@H](C)C[C@@H]2OC,,"kidney transplant recipients, whole blood","oral, dose not given, late post-transplant phase",patients with C0 in therapeutic range,45%
COc1cc(Nc2ncc3c(n2)-c2ccc(Cl)cc2C(c2c(F)cccc2OC)=NC3)ccc1C(=O)O,,cancer patients,"oral, dose not given, grade 3 any attribution, together with: pembrolizumab",patients with febrile neutropenia,8%
Cc1cc(NC2CCN(C(=O)OC3CCN(C(=O)/C=C/CN(C)C)C3)CC2)n2ncc(C(C)C)c2n1 (centres unmarked),"Phase I dose escalation CTCAE v4.0, measured: AST increased",patients with advanced solid tumours,"dose not given, QD dosing grade 3 or higher",patients with adverse event,0%
CC(C)C[C@H](NC(=O)[C@@H](Cc1c[nH]c2ccccc12)NC(=O)[C@H](Cc1ccc(O)cc1)NC(=O)[C@H](CO)NC(=O)[C@H](Cc1c[nH]c2ccccc12)NC(=O)[C@H](Cc1c[nH]cn1)NC(=O)[C@@H]1CCC(=O)N1)C(=O)N[C@@H](CCCNC(=N)N)C(=O)N1CCC[C@H]1C(=O)NCC(N)=O,,"Chinese CPP children, girls","intramuscular, 22.5 mg, 12 months, day 1, month 6",patients with adverse events,88.7%
C=CCN1CC(=O)N2[C@@H](Cc3ccc(O)cc3F)C(=O)N(Cc3cccc(N4CC(N5CCN(CC)CC5)C4)n3)C[C@@H]2N1C(=O)NCc1ccccc1,,advanced solid tumour patients,"160 mg twice daily, treatment-related, any grade",patients with ALT increased,50%
O=C(Nc1nc2cccc(-c3ccc(CN4CCS(=O)(=O)CC4)cc3)n2n1)C1CC1,,rheumatoid arthritis patients,"oral, 100 mg twice daily, 4 weeks, TEAE regardless of relatedness",patients with Arthralgia,8.3%
